# Experimental data gathered from unrelated publications.
# Each numbered part is a random draw from the data of one study; scales do not carry over between parts.

# Study 1
# Target: Interferon regulatory factor 7, full length, phosphomimetic (IRF7, Homo sapiens, UniProt Q92985, residues 1-503, S101K/S471D/S472D/S475D/S476D/S477D/S483D/S484D/S487D)
# Technique: protein-binding microarray
# Form: double-stranded DNA, one strand shown
# Sample: in vitro
# Tested at: 250 nM
# Notes: 60-bp whole probe
# Together with: salmon DNA 0.4 mg/ml
# Reference: random background probes
# Direction: higher = stronger binding
# Shared flanks, not repeated: GCCTAGCAC … GTCTTGATTCGCTTGACGCTGCTG
# Target sequence (chain): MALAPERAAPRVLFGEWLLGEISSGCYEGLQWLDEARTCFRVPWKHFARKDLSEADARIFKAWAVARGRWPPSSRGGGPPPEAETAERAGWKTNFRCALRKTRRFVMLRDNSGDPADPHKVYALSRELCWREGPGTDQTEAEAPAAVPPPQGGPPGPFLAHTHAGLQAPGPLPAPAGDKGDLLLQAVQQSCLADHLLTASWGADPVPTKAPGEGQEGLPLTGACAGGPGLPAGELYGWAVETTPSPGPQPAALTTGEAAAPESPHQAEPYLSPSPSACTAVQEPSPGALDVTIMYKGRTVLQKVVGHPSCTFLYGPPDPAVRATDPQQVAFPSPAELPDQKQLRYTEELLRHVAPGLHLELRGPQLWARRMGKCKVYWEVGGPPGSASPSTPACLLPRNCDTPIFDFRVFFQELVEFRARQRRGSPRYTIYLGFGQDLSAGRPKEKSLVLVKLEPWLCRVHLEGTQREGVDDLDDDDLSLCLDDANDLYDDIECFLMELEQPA
Strand,log fluorescence
CTTTACATGGGTTTTCAGCTGGTGCTA,0.158 z-score
GACGATATCGGCACTGGAGACGTGCTA,-0.659 z-score
TTAGATATCAGAATCGATTAGTGCTAG,0.59 z-score
GACGGTATCGACTTTCGGTACGTGCTA,1.9 z-score
TTAGGACTGGGGACGGGGTTAGTGCTA,0.643 z-score
GAGGGACTGGGTATCGGGACGTGCTAG,0.131 z-score

# Study 2
# Target: RING finger protein unkempt homolog, zinc fingers 1-6, GST-SBP tag (UNK, Homo sapiens, UniProt Q9C0B0, residues 30-357)
# UniProt Q9C0B0, sequence (30-357, looked up): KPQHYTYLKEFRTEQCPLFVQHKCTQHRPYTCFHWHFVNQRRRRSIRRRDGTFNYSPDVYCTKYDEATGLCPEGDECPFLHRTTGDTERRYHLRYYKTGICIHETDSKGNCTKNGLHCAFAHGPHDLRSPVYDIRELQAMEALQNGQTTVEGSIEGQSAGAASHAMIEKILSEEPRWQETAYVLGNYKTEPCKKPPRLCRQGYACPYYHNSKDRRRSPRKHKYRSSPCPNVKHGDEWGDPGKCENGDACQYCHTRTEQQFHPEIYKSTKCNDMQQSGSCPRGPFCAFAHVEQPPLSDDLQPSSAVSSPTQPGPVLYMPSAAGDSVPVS
# Technique: RNA Bind-n-Seq
# Form: RNA
# Sample: in vitro
# Tested at: not given
# Notes: RNA with constant flanks, human-mouse chimeric sites, ends assumed
# Reference: input RNA pool
# Direction: higher = stronger binding
# Shared flanks, not repeated: GGGAGUUCUACAGUCCGACGAUC … CAACAGAGGAUUGAGCAUCA
Strand,bound/input enrichment [ratio]
UGGCGCCUGCGCUCCCCACUCGUGUUUUUAAGUGUAUAAGAUGUAUAUACAUGUAUUUGUAAUAGAUCUUUUGUUACAUAAUGCUGAAAUGCUACUGGAGAUUAUGAAAAAUGUUUCAAU,0.127
CAGUCCCCGUGUCCCAGUGCAGGACGAUGUGAACAAAAACUCAAAGCGGACCCUCUAUUGUAGUUCUUGAUUCUCGAGUGCCAUUAUUAUUGUUUGUCUUUUUUUUUUUUUUUUUAAAGA,1.19
GUGUCCUGCUUUCAACUUAAAUCACUGCAUUUUUACUACUGUUCUGUGAGCAUCAGGAUUUUAGUGCUGUGUCACCACAUGAGAGUUCAGAAGCAGCCUUUCUGUGGAGGGUGGGAAUGA,0.169
AACUUUGUGCAUCGGUUUCCCUUUGUAGCUGUUUCAAUUGGCUUCCUUGUGAAUAAAGAGAUGGAGUUUGGAAUUGUGUACAGCUGUGUGGAAGAUAAGAUGUACACCGGCAGGAAAGGG,0.468
GGGACUGAUUCAUCCCAAGGACAGGCAACCCCAUUUGAUGCCUGGACUGAUGACAGUAUGGAAGGGCCUAGUCAAAAUGUUGAAGCUGAGUCAAUUCAGGAUGCCAUGCAUAUGGCAGAG,0.241

# Study 3
# Target: Hepatocyte nuclear factor 3-beta, forkhead domain (FOXA2, Homo sapiens, UniProt Q9Y261, residues 142-269)
# Technique: protein-binding microarray
# Form: double-stranded DNA, one strand shown
# Sample: in vitro
# Tested at: not given
# Notes: k-mer, scored over probes, only values ≥0.25
# Direction: higher = stronger binding
# Construct (chain): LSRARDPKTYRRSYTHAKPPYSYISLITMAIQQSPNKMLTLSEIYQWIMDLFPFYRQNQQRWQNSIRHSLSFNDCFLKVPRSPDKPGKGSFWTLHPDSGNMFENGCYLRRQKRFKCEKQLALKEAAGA
Strand,E-score
CACACACA,0.27
GCAATACA,0.333
TATACAGA,0.325
CAATTATG,0.312
GTATATAA,0.341
ATATCTAC,0.333
ATTGATGG,0.297

# Single results of other studies
Substance,target,assay,system,setting,scale,endpoint,value
"PhoQ, residues 284 288 289 292 302 303 SMMNNA","PhoP, residues 12 14 15 18 19 GQAIL (Escherichia coli, UniProt P23836)","Sort-seq, measured: YFP reporter",E. coli,"PhoQ-PhoP variant library, together with: 10 µM Mg2+","reference: high Mg2+ state, higher = stronger signaling",fold induction,13.1

# Excerpt of the above (single results of other studies):
Substance,target,assay,system,setting,scale,endpoint,value
"PhoQ, residues 284 288 289 292 302 303 SMMNNA","PhoP, residues 12 14 15 18 19 GQAIL (Escherichia coli, UniProt P23836)","Sort-seq, measured: YFP reporter",E. coli,"PhoQ-PhoP variant library, together with: 10 µM Mg2+","reference: high Mg2+ state, higher = stronger signaling",fold induction,13.1
